Measurements of several laboratories.
Compare with care: the assays were run in different laboratories. Values joined by “and” are separate records of one study, mostly repeats; a detail may differ. Numbers after ± are the reported error.
Target: Alpha-glucosidase MAL12 (MAL12, Saccharomyces cerevisiae S288c, UniProt P53341)
Sequence of UniProt P53341 (whole entry, looked up): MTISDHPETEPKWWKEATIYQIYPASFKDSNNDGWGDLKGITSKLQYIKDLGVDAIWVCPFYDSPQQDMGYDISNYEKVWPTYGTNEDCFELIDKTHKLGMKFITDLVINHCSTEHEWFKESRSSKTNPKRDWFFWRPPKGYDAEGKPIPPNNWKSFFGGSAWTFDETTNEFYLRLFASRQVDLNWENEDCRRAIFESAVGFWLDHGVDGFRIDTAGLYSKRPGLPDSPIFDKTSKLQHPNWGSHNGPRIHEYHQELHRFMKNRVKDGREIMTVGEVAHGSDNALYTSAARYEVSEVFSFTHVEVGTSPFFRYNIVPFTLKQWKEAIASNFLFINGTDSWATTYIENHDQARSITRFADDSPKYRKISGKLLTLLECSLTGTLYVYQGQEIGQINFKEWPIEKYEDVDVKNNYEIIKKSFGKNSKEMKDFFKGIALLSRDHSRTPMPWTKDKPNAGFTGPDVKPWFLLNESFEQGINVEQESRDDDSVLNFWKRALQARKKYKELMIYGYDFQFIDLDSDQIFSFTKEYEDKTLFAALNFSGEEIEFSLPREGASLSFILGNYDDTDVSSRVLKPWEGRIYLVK

| SMILES | read-out | action | tested at | time | notes | added | inhibition |
| --- | --- | --- | --- | --- | --- | --- | --- |
| COc1ccc(-c2c(C)oc3c(Cn4cccn4)c(O)ccc3c2=O)cc1 |  | inhibitor | 25 µM |  |  |  | 15.2% |
| CCCCCCCCCC1NCCc2cc(O)c(O)cc21 (stereo not shown) | enzyme activity | inhibitor | 100 µM |  | DMSO solvent | pNPG substrate | 42.8 ± 1.96% |
| O=C(O)Cc1ccc(O)cc1 |  | inhibitor | 100 µg/mL | 0.4167 h |  | p-nitrophenyl glucoside substrate | 35.6 ± 4.86% |
| COc1cc(C2NCCc3cc(O)c(O)cc32)ccc1O (stereo not shown) | enzyme activity | inhibitor | 100 µM |  | DMSO solvent | pNPG substrate | 76.4 ± 1.43% |
| Cc1ccc(NC(=S)N/N=C/c2coc3cc(F)ccc3c2=O)c(C)c1 | enzyme activity | inhibitor | 500 µM |  |  |  | 89.8% |
| Oc1cc2c(cc1O)C(Cc1ccccc1)NCC2 (stereo not shown) | enzyme activity | inhibitor | 100 µM |  | DMSO solvent | pNPG substrate | 72.9 ± 1.51% |
| O=c1c(-c2ccc(OC(F)(F)F)cc2)coc2c(Cn3ccnc3)c(O)ccc12 |  | inhibitor | 25 µM |  |  |  | 29.9% |
| COc1ccc(NC(=S)N/N=C/c2coc3cc(F)ccc3c2=O)cc1 | enzyme activity | inhibitor | 500 µM |  |  |  | 90.6% |
| O=CNCc1ccc(O)cc1 |  | inhibitor | 100 µg/mL | 0.4167 h |  | p-nitrophenyl glucoside substrate | 44.2 ± 2.99% |
| O=c1c(O)c(-c2ccc(O)cc2)oc2cc(O)cc(O)c12 | enzyme activity |  | concentration not given |  |  | p-nitrophenyl α-D-glucoside substrate | 41.7% and 37.8% |
| COc1cccc(C2NCCc3cc(O)c(O)cc32)c1O (stereo not shown) | enzyme activity | inhibitor | 100 µM |  | DMSO solvent | pNPG substrate | 37.2 ± 2.85% |
| Cc1cc(C)n(Cc2ccccc2O)n1 |  | inhibitor | 25 µM |  |  |  | < 0% |
| O=c1c(/C=N/NC(=S)Nc2cccc(Cl)c2Cl)coc2cc(F)ccc12 | enzyme activity | inhibitor | 500 µM |  |  |  | 92.5% |
| COc1ccc(-c2c(C)oc3c(Cn4nc(C)cc4C)c(O)ccc3c2=O)cc1 |  | inhibitor | 25 µM |  |  |  | 21.8% |
| O=c1c(/C=N/NC(=S)Nc2ccccc2)coc2cc(F)ccc12 | enzyme activity | inhibitor | 500 µM |  |  |  | 87.7% |
| COc1cc(Cn2cccn2)ccc1O |  | inhibitor | 25 µM |  |  |  | < 0% |
| CNC(=S)N/N=C/c1coc2cc(F)ccc2c1=O | enzyme activity | inhibitor | 500 µM |  |  |  | 74.5% |
| Oc1ccccc1Cn1cnc2ccccc21 |  | inhibitor | 25 µM |  |  |  | 24.2% |
| Cc1cc(=O)oc2ccc(-c3cc(-c4ccccc4)nc(N)n3)c(O)c12 | enzyme activity | inhibitor | concentration not given |  |  |  | 65.2 ± 1.23% |
